Published values gathered from unrelated publications.
Parts stem from different laboratories: compare values within a part only. Several values in a cell are separate wells, animals, samples, runs or records.
UniProt Q56UN5, sequence (whole entry, looked up): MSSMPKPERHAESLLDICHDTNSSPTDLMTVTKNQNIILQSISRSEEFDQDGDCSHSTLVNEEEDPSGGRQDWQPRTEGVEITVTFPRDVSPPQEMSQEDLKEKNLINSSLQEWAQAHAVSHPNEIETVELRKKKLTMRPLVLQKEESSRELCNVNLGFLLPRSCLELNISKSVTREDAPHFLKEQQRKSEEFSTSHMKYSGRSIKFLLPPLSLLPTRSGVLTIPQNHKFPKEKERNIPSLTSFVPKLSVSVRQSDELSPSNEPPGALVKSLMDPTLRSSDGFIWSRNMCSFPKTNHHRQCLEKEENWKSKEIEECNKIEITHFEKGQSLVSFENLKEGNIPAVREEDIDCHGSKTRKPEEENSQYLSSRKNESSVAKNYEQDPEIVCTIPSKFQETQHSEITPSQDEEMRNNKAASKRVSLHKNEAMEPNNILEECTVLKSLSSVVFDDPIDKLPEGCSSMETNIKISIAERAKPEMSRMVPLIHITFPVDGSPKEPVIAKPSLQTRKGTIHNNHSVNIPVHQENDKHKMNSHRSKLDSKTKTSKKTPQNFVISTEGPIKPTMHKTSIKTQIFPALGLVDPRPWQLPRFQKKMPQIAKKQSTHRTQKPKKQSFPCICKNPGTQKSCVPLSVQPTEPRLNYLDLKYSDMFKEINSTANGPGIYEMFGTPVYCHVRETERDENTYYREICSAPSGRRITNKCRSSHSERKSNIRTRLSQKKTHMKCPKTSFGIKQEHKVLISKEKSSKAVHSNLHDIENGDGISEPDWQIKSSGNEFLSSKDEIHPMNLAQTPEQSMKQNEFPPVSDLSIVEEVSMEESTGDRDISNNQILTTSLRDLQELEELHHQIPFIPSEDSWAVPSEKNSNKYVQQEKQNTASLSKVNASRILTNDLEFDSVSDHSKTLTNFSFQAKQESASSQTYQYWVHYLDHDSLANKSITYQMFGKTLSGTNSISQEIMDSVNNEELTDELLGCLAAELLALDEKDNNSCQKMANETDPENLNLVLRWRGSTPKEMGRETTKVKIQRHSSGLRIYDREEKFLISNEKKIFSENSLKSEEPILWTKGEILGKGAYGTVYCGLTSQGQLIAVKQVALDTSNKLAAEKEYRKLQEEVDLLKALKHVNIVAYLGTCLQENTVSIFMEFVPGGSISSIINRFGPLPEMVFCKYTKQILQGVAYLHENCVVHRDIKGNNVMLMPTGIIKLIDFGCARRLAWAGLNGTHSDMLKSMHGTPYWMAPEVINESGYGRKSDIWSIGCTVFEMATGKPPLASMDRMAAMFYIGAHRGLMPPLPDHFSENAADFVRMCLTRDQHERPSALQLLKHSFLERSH
UniProt Q9Y2U5, sequence (whole entry, looked up): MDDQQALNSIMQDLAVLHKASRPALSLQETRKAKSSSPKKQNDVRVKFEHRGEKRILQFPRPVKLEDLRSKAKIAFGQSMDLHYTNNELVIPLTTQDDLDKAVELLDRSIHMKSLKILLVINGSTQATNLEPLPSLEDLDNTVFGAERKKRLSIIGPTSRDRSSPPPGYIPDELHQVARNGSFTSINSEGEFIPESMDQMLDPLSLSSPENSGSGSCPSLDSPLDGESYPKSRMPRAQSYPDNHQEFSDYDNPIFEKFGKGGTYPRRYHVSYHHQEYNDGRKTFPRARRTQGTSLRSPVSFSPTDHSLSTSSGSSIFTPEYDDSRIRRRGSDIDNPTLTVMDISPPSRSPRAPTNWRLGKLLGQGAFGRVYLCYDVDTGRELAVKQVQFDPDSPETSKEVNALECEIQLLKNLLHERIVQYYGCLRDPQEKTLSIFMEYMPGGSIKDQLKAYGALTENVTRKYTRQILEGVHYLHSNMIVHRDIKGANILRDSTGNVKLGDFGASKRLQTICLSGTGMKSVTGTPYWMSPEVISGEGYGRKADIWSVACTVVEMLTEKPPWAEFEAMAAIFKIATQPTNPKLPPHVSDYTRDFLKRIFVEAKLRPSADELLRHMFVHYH
UniProt O60285, sequence (whole entry, looked up): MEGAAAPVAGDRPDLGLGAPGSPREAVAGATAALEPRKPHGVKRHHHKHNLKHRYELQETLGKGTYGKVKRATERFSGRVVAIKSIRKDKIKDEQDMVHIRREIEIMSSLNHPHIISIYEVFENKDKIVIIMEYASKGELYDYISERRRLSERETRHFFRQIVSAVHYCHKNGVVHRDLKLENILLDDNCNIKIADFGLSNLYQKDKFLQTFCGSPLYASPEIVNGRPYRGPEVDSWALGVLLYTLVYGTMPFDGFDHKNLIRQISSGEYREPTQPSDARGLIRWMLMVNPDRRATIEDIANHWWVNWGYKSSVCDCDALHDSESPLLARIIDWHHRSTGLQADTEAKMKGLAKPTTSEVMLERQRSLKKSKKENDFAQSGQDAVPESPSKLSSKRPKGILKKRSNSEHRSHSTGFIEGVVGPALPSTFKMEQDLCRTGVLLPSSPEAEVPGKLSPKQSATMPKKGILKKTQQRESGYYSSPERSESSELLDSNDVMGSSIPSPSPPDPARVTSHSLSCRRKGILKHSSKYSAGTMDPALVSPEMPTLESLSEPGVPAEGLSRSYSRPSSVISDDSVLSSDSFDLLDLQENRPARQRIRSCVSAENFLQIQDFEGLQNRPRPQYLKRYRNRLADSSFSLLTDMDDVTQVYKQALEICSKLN
UniProt Q13882, sequence (whole entry, looked up): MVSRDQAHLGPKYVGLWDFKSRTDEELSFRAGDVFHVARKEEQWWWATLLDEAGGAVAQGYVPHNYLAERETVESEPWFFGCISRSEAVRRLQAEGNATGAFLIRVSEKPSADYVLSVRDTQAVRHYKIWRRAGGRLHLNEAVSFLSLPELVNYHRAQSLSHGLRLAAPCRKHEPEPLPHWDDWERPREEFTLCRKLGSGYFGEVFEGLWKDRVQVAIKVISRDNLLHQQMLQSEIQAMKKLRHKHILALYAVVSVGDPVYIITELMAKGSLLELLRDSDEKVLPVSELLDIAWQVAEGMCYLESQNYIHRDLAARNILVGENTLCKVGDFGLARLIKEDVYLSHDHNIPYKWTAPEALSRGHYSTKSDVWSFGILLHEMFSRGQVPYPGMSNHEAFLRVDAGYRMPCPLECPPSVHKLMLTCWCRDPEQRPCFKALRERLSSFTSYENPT
UniProt P16591, sequence (whole entry, looked up): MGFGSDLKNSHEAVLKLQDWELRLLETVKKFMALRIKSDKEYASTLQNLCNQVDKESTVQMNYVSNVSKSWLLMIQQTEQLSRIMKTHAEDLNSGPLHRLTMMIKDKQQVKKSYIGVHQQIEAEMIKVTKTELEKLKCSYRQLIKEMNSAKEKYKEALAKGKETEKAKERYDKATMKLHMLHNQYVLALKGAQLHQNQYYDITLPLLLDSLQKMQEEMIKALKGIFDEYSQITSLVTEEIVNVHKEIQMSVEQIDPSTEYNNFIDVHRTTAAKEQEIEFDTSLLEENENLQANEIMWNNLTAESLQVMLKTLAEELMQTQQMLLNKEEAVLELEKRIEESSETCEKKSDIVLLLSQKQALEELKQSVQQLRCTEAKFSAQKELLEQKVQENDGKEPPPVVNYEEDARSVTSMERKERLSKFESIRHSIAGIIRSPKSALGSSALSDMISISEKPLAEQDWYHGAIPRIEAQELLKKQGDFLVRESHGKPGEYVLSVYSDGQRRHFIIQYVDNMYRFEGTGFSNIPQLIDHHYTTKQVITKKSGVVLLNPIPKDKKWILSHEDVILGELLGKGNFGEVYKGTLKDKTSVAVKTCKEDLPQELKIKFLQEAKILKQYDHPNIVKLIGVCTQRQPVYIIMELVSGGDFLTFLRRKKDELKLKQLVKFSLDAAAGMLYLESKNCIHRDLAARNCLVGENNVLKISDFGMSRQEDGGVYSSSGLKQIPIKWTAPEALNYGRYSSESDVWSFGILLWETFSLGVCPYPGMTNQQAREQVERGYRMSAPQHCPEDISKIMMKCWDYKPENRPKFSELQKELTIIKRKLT
UniProt P51956, sequence (whole entry, looked up): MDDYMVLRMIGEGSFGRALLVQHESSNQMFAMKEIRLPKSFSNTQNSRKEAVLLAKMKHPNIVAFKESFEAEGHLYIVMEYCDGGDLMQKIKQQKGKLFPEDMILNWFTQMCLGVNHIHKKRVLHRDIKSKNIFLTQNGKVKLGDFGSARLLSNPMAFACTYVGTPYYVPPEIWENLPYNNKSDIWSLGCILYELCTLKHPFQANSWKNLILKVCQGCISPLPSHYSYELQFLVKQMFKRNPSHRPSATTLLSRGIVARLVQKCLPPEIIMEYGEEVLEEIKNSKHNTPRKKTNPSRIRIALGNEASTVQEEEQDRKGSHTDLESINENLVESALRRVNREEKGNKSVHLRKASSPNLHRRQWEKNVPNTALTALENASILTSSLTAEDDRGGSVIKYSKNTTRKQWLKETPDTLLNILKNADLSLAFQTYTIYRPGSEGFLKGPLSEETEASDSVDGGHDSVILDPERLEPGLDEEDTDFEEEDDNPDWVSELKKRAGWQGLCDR

Set 1
Target: Sodium-dependent neutral amino acid transporter B(0)AT1 (SLC6A19, Homo sapiens, UniProt Q695T7)
UniProt Q695T7, sequence (whole entry, looked up): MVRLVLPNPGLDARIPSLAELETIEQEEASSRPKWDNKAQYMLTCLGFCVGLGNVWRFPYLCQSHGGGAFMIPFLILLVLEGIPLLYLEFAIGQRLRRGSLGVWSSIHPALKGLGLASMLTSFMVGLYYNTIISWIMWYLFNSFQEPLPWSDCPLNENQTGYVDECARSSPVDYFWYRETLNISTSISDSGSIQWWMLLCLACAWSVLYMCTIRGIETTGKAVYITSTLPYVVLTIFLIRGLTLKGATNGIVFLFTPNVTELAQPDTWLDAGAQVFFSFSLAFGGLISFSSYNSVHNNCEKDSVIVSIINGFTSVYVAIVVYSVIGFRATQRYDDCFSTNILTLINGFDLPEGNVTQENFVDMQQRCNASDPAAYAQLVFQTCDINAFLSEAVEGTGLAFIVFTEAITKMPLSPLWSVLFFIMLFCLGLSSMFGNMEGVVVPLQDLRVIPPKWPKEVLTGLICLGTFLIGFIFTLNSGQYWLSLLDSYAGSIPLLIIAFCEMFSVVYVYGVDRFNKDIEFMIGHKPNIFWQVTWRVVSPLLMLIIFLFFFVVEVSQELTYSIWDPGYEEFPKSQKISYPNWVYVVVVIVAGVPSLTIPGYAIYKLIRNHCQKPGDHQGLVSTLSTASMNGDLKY
Action: inhibitor
Method: L-[14C]leucine uptake
Cells: CHO-BC cells
Setting: first repeat
Endpoint: IC50
CC(C)NC(=O)COc1ccc(Cl)cc1: 17.7 µM
CC(C)NC(=O)COc1ccc(I)cc1: 3 µM
CC(C)NC(=O)COc1ccc(Br)cc1: 8.53 µM
CCCNC(=O)COc1cc(C)c(Cl)c(C)c1: 1.8 µM

Set 2
Structure (SMILES): O=C(Nc1ccccc1)Nc1cccc(Oc2ccc3nccn3n2)c1
Effect on: binding
Concentration: 1 µM
Endpoint: remaining binding
FER (Homo sapiens, UniProt P16591): 100%
PTK6 (Homo sapiens, UniProt Q13882); competition with immobilised ligand: 100%
Mast/stem cell growth factor receptor Kit, autoinhibited (KIT, Homo sapiens, UniProt P10721); competition with immobilised ligand: 61%
MAP3K2 (Homo sapiens, UniProt Q9Y2U5); competition with immobilised ligand: 100%
NEK3 (Homo sapiens, UniProt P51956): 92%
MAP3K19 (Homo sapiens, UniProt Q56UN5); competition with immobilised ligand: 13%
NUAK1 (Homo sapiens, UniProt O60285): 100%
IRAK1 (Homo sapiens, UniProt P51617): 91%

Set 3
Structure (SMILES): Cc1ncsc1-c1ccc(C(CO)NC(=O)C2CC(O)CN2C(=O)C(C(C)C)n2cc(-c3ccc(COc4c(-c5c(C)c(F)cc6[nH]ncc56)c(C5CC5)cc5c(N6CC7CC6CN7)nc(OC6CCOCC6)nc45)cc3)nn2)cc1 (stereo not shown)
Endpoint: tumour volume
mouse, lung LXFA sample A PDX; 10 mg/kg twice weekly, day 13: 75.2 mm3 and 124 mm3 and 169 mm3 and 141 mm3 and 75 mm3 and 77.6 mm3 and 349 mm3 and 239 mm3
mouse, lung LXFA sample B PDX; 10 mg/kg twice weekly, day 22: 343 mm3 and 289 mm3 and 482 mm3 and 65.8 mm3 and 198 mm3 and 194 mm3 and 444 mm3 and 133 mm3
mouse, PK-59 xenograft; 0.3 mg/kg, day 0: 238 mm3 and 268 mm3 and 312 mm3 and 324 mm3 and 304 mm3
mouse, PK-59 xenograft; 0.3 mg/kg, day 14: 998 mm3 and 1200 mm3 and 1190 mm3 and 1160 mm3 and 1310 mm3
mouse, PK-59 xenograft; 30 mg/kg, day 21: 92.3 mm3 and 80.1 mm3 and 123 mm3 and 148 mm3 and 96.7 mm3
mouse, lung LXFA sample A PDX; 30 mg/kg twice weekly, day 19: 47.8 mm3 and 141 mm3 and 68.7 mm3 and 44.6 mm3 and 119 mm3 and 71.3 mm3 and 80.9 mm3 and 7.8 mm3

Other studies, line by line
Cn1cc(-c2cccc(CN3CCC4(CC3)COc3c4ccc4c3CN([C@H]3CCC(=O)NC3=O)C4=O)c2)cn1 — Cmax (mouse, Crbn I391V, thymus; oral, 30 mg/kg): ~786 nM

For quick reference, copied from above (set 3):
mouse, PK-59 xenograft; 30 mg/kg, day 21: 92.3 mm3 and 80.1 mm3 and 123 mm3 and 148 mm3 and 96.7 mm3
